{"data": "Results pooled from the literature", "HLA class I histocompatibility antigen, B alpha chain": "HLA class I histocompatibility antigen, B alpha chain (Homo sapiens, UniProt P01889)", "HLA class I histocompatibility antigen, B alpha chain allele B*27:05": "HLA class I histocompatibility antigen, B alpha chain, allele B*27:05 (Homo sapiens, UniProt P01889)", "HLA class I histocompatibility antigen, B alpha chain allele B*18:01": "HLA class I histocompatibility antigen, B alpha chain, allele B*18:01 (Homo sapiens, UniProt P01889)", "HLA class I histocompatibility antigen, B alpha chain allele B*40:01": "HLA class I histocompatibility antigen, B alpha chain, allele B*40:01 (Homo sapiens, UniProt P01889)", "note": "Each line is one published result; not all experiments were run side by side."}
{"Structure (SMILES)": "CC(C)C[C@H](NC(=O)[C@H](Cc1ccc(O)cc1)NC(=O)CNC(=O)[C@@H](N)C(C)C)C(=O)N[C@@H](CCC(N)=O)C(=O)N1CCC[C@H]1C(=O)N[C@@H](CCCNC(=N)N)C(=O)N[C@H](C(=O)N[C@@H](Cc1ccccc1)C(=O)O)[C@@H](C)O", "target": "HLA class I histocompatibility antigen, B alpha chain", "test": "peptide-MHC binding, radioligand competition binding", "IC50": "> 70000 nM"}
{"Structure (SMILES)": "N=C(N)NCCC[C@H](NC(=O)[C@H](CC(N)=O)NC(=O)[C@H](Cc1ccc(O)cc1)NC(=O)[C@H](CO)NC(=O)[C@H](CCCNC(=N)N)NC(=O)[C@H](CS)NC(=O)[C@H](Cc1c[nH]cn1)NC(=O)[C@H](CCCNC(=N)N)NC(=O)[C@@H](N)CCCNC(=N)N)C(=O)O", "target": "HLA class I histocompatibility antigen, B alpha chain allele B*27:05", "test": "peptide binding, fluorescence anisotropy", "setting": "18 h, 4 °C", "IC50": "55 nM"}
{"Structure (SMILES)": "CC[C@H](C)[C@H](NC(=O)[C@H](CCC(N)=O)NC(=O)[C@@H]1CCCN1C(=O)[C@H](Cc1ccc(O)cc1)NC(=O)[C@@H]1CCCN1C(=O)[C@@H](N)CC(C)C)C(=O)N[C@@H](CC(C)C)C(=O)N[C@@H](CC(C)C)C(=O)N[C@@H](CC(C)C)C(=O)O", "target": "HLA class I histocompatibility antigen, B alpha chain", "test": "binding, competitor", "IC50": "144 nM"}
{"Structure (SMILES)": "CC(C)C[C@H](NC(=O)[C@@H](N)CCC(=O)O)C(=O)N1CCC[C@H]1C(=O)N[C@@H](CC(=O)O)C(=O)N[C@@H](CCC(=O)O)C(=O)N[C@@H](Cc1ccccc1)C(=O)N[C@H](C(=O)N[C@H](C(=O)N[C@H](C(=O)O)C(C)C)C(C)C)C(C)C", "target": "HLA class I histocompatibility antigen, B alpha chain", "test": "peptide-MHC binding, radioligand competition binding", "IC50": "> 70000 nM"}
{"Structure (SMILES)": "CC[C@H](C)[C@H](NC(=O)[C@H](CCCCN)NC(=O)[C@H](CC(C)C)NC(=O)[C@H](Cc1ccc(O)cc1)NC(=O)[C@H](CC(C)C)NC(=O)[C@H](CO)NC(=O)[C@H](CCC(N)=O)NC(=O)[C@H](CCCNC(=N)N)NC(=O)[C@@H](N)Cc1ccccc1)C(=O)O", "target": "HLA class I histocompatibility antigen, B alpha chain allele B*27:05", "test": "peptide binding, fluorescence anisotropy", "setting": "18 h, 4 °C", "IC50": "7 nM"}
{"Structure (SMILES)": "CC[C@H](C)[C@H](NC(=O)[C@@H](NC(=O)[C@@H](NC(=O)[C@H](CC(=O)O)NC(=O)[C@H](CC(=O)O)NC(=O)CNC(=O)[C@@H](N)Cc1ccccc1)[C@@H](C)O)C(C)C)C(=O)N[C@@H](CCC(=O)O)C(=O)N[C@H](C(=O)O)C(C)C", "target": "HLA class I histocompatibility antigen, B alpha chain allele B*18:01", "test": "peptide-MHC binding, radioligand competition binding", "IC50": "> 70000 nM"}
{"Structure (SMILES)": "CSCC[C@H](NC(=O)[C@H](CCC(=O)O)NC(=O)[C@H](CCC(=O)O)NC(=O)[C@@H](N)CCCNC(=N)N)C(=O)N[C@@H](CCC(=O)O)C(=O)N[C@H](C(=O)N[C@@H](Cc1c[nH]cn1)C(=O)N[C@@H](CCC(=O)O)C(=O)N[C@@H](CC(C)C)C(=O)O)C(C)C", "target": "HLA class I histocompatibility antigen, B alpha chain allele B*40:01", "test": "binding, competitor, radioligand competition", "setting": "two days, room temperature, HLA-B*40:01", "IC50": "20 nM"}
{"Structure (SMILES)": "CC[C@H](C)[C@H](NC(=O)[C@@H](NC(=O)[C@H](Cc1c[nH]c2ccccc12)NC(=O)[C@H](CC(=O)O)NC(=O)[C@@H](NC(=O)[C@H](CCCNC(=N)N)NC(=O)[C@@H](N)CCCCN)C(C)C)[C@@H](C)O)C(=O)N[C@@H](CCC(=O)O)C(=O)N[C@@H](Cc1ccc(O)cc1)C(=O)O", "target": "HLA class I histocompatibility antigen, B alpha chain allele B*18:01", "test": "peptide-MHC binding, radioligand competition binding", "IC50": "> 70000 nM"}
{"Structure (SMILES)": "CSCC[C@H](NC(=O)[C@H](CCCNC(=N)N)NC(=O)[C@@H](N)Cc1ccccc1)C(=O)N[C@@H](Cc1ccccc1)C(=O)N[C@@H](CC(C)C)C(=O)N[C@H](C(=O)N[C@@H](CCC(N)=O)C(=O)NCC(=O)N[C@@H](Cc1ccccc1)C(=O)O)[C@@H](C)O", "target": "HLA class I histocompatibility antigen, B alpha chain allele B*27:05", "test": "peptide binding, fluorescence anisotropy", "setting": "18 h, 4 °C", "IC50": "2 nM"}
{"Structure (SMILES)": "CSCC[C@H](NC(=O)[C@H](Cc1c[nH]cn1)NC(=O)[C@H](CC(=O)O)NC(=O)[C@H](Cc1ccc(O)cc1)NC(=O)[C@H](CCC(N)=O)NC(=O)[C@@H](N)CCCCN)C(=O)N[C@@H](Cc1ccc(O)cc1)C(=O)N[C@@H](CCC(N)=O)C(=O)N[C@@H](CC(C)C)C(=O)O", "target": "HLA class I histocompatibility antigen, B alpha chain allele B*40:01", "test": "binding", "IC50": "1270 nM"}
{"Structure (SMILES)": "CC(C)C[C@H](NC(=O)[C@@H]1CCCN1C(=O)[C@@H](NC(=O)[C@@H]1CCCN1C(=O)[C@@H](NC(=O)[C@H](CCC(=O)O)NC(=O)[C@H](Cc1c[nH]cn1)NC(=O)[C@H](CCCNC(=N)N)NC(=O)[C@@H](N)CCCCN)C(C)C)C(C)C)C(=O)O", "target": "HLA class I histocompatibility antigen, B alpha chain allele B*27:05", "test": "peptide binding, fluorescence anisotropy", "setting": "18 h, 4 °C", "IC50": "907 nM"}
{"Structure (SMILES)": "C[C@@H](O)[C@H](NC(=O)[C@H](CO)NC(=O)[C@@H]1CCCN1C(=O)[C@H](CCC(=O)O)NC(=O)[C@H](Cc1ccccc1)NC(=O)[C@H](CCC(=O)O)NC(=O)[C@@H](N)CCC(=O)O)C(=O)N[C@@H](CCC(N)=O)C(=O)N[C@@H](Cc1ccc(O)cc1)C(=O)N[C@@H](CCC(=O)O)C(=O)N[C@@H](Cc1ccc(O)cc1)C(=O)O", "target": "HLA class I histocompatibility antigen, B alpha chain allele B*18:01", "test": "peptide-MHC binding, radioligand competition binding", "IC50": "1.1 nM"}
{"Structure (SMILES)": "CC(C)C[C@H](NC(=O)[C@H](C)NC(=O)[C@H](Cc1c[nH]c2ccccc12)NC(=O)[C@H](CCCNC(=N)N)NC(=O)CN)C(=O)N[C@@H](Cc1c[nH]cn1)C(=O)N[C@@H](CO)C(=O)N[C@@H](C)C(=O)N[C@@H](Cc1ccccc1)C(=O)O", "target": "HLA class I histocompatibility antigen, B alpha chain allele B*27:05", "test": "peptide binding, fluorescence anisotropy", "setting": "18 h, 4 °C", "IC50": "68 nM"}
{"Structure (SMILES)": "CC[C@H](C)[C@H](NC(=O)[C@@H]1CCCN1C(=O)[C@H](CO)NC(=O)[C@H](CCSC)NC(=O)[C@H](CCC(N)=O)NC(=O)[C@@H](N)CCCCN)C(=O)N[C@@H](Cc1c[nH]c2ccccc12)C(=O)N[C@H](C(=O)N[C@@H](Cc1ccc(O)cc1)C(=O)O)[C@@H](C)O", "target": "HLA class I histocompatibility antigen, B alpha chain allele B*40:01", "test": "binding", "IC50": "45700 nM"}
{"Structure (SMILES)": "CC(C)C[C@H](NC(=O)[C@H](Cc1c[nH]cn1)NC(=O)[C@H](CCCNC(=N)N)NC(=O)[C@@H](N)Cc1ccc(O)cc1)C(=O)N[C@@H](Cc1ccccc1)C(=O)N[C@@H](CCCCN)C(=O)N[C@H](C(=O)N[C@@H](Cc1ccccc1)C(=O)N[C@@H](CCCNC(=N)N)C(=O)O)C(C)C", "target": "HLA class I histocompatibility antigen, B alpha chain allele B*27:05", "test": "peptide binding, fluorescence anisotropy", "setting": "18 h, 4 °C", "IC50": "70 nM"}
{"Structure (SMILES)": "CC[C@H](C)[C@H](NC(=O)[C@H](CCCNC(=N)N)NC(=O)CNC(=O)[C@@H](NC(=O)[C@@H]1CCCN1C(=O)[C@@H](N)CCSC)[C@@H](C)CC)C(=O)N[C@@H](C)C(=O)N[C@@H](CCC(=O)O)C(=O)N[C@@H](CS)C(=O)N[C@H](C(=O)N[C@@H](CC(C)C)C(=O)O)[C@@H](C)CC", "target": "HLA class I histocompatibility antigen, B alpha chain allele B*40:01", "test": "binding, competitor, radioligand competition", "setting": "two days, room temperature, HLA-B*40:01", "IC50": "2260 nM"}
{"Structure (SMILES)": "CC(C)C[C@H](NC(=O)[C@H](CCC(N)=O)NC(=O)[C@H](CC(=O)O)NC(=O)[C@H](C)NC(=O)[C@@H](N)Cc1c[nH]cn1)C(=O)N[C@H](C(=O)N1CCC[C@H]1C(=O)N[C@H](C(=O)N[C@@H](Cc1c[nH]c2ccccc12)C(=O)O)[C@@H](C)O)[C@@H](C)O", "target": "HLA class I histocompatibility antigen, B alpha chain allele B*18:01", "test": "peptide-MHC binding, radioligand competition binding", "IC50": "3350 nM"}
{"Structure (SMILES)": "CC[C@H](C)[C@H](NC(=O)[C@@H]1CCCN1C(=O)[C@H](Cc1c[nH]cn1)NC(=O)[C@H](CCCCN)NC(=O)[C@H](Cc1ccc(O)cc1)NC(=O)[C@@H](NC(=O)[C@@H](N)Cc1ccc(O)cc1)[C@@H](C)O)C(=O)N[C@@H](Cc1ccc(O)cc1)C(=O)N[C@@H](CC(C)C)C(=O)O", "target": "HLA class I histocompatibility antigen, B alpha chain allele B*40:01", "test": "binding", "IC50": "4130 nM"}
